Measurements gathered from unrelated publications.
Numbered parts are unrelated; each lists some results of a single study. Positions count from the first letter of the parent shown.

Block 1 — target: CEP164, C-terminal peptide (human); technique: DHFR complementation, deep sequencing; medium: yeast; relative to: wild type; reading: higher = weaker binding; measurement: binding free energy change
Notes: single substitutions, model-inferred values
Parent: PDZK1, PDZ domain 2 (human); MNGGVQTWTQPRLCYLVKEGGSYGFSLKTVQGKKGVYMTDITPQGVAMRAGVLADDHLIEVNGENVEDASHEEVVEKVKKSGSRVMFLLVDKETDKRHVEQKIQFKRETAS; partner HNRVKVYRF
V85Q: 1.48 kcal/mol
E60I: 0.351 kcal/mol
T39C: -0.55 kcal/mol
S81E: 1.23 kcal/mol
L88A: -0.117 kcal/mol
R107S: -0.142 kcal/mol
E108S: -0.137 kcal/mol
G35Q: 1.02 kcal/mol
K33R: 0.0468 kcal/mol
S70Q: -0.0466 kcal/mol
L53Y: 0.0818 kcal/mol
D68E: -0.0426 kcal/mol
E64K: 0.138 kcal/mol
V90C: -0.109 kcal/mol
Y15R: 0.123 kcal/mol
E72G: 0.565 kcal/mol
D68G: -0.0341 kcal/mol
V85D: 2.24 kcal/mol
A50Y: 0.563 kcal/mol
K18W: 0.538 kcal/mol
I59N: 0.971 kcal/mol
K77N: 0.24 kcal/mol
L13V: -0.04 kcal/mol
T42A: 0.261 kcal/mol
H57Q: -0.371 kcal/mol

Block 2 — target: CCNE1, cyclin fold, Cln2 fusion (human); technique: yeast growth competition, sequencing; medium: yeast; notes: strong parent motif; relative to: not given; reading: higher = stronger binding; measurement: normalised enrichment score
Parent: INSM1 docking peptide (human); PKAIRKLHFEDEV; partner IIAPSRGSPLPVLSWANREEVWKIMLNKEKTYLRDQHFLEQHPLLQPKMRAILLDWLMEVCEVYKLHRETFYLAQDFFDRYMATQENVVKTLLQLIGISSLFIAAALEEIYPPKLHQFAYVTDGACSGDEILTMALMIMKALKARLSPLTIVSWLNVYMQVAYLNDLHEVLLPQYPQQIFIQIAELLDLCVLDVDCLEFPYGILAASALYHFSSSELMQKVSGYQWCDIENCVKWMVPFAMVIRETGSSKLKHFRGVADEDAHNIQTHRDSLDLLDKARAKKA
A3D: -0.299
H8Q: 4.6
R5G: -0.0933
E12A: 4.25
A3M: 1.09
D11R: 1.47
H8R: 3.21
H8I: 5.96
E12V: 3.86
K2F: 4
I4E: 0.627
E12L: 3.67
A3Q: 0.308
A3G: 2.41
R5T: 0.122
E12W: 3.24
A3C: 4.75
E12R: 2.51
A3R: 0.212
F9E: 0.0726
H8C: 5.77
K6I: 3.2
K6Q: 4.75
A3P: 1.85
I4G: 0.277

Block 3 — target: TEF, bZIP domain (human); technique: DHFR protein complementation; medium: yeast; relative to: wild-type JUN-FOS pair; reading: higher = stronger binding; measurement: binding fitness
Notes: single substitutions, most at no-binding floor
Parent: JUN, bZIP domain (human); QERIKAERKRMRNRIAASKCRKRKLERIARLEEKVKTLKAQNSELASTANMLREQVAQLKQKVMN; partner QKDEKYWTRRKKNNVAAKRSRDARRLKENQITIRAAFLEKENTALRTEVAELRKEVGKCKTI
E54S: -1.45 natural log
L52V: -1.51 natural log
E54G: -1.29 natural log
K34T: -1.54 natural log
K39V: -1.45 natural log
E54C: -1.45 natural log
Q55L: -1.3 natural log
E44V: -1.36 natural log
L38R: -1.47 natural log
T37S: -1.49 natural log
Q55I: -1.36 natural log
T37A: -1.25 natural log
S43P: -1.51 natural log
A57E: -1.45 natural log
S43R: -1.44 natural log
A57M: -1.25 natural log
E54P: -1.53 natural log

Block 4 — technique: competition protein-binding microarray; form: double-stranded DNA, one strand shown; medium: in vitro; tested at: 2 µM; with: Pho4 competitor, 0.05 µM; reading: higher = stronger binding; measurement: fluorescence intensity; all sequences stand within: … GTCTTGATTCGCTTGACGCTGCTG
Target: Centromere-binding protein 1, full length, His-tagged (CBF1, Saccharomyces cerevisiae, UniProt P17106, residues 1-351)
Sequence of UniProt P17106 (whole entry, looked up): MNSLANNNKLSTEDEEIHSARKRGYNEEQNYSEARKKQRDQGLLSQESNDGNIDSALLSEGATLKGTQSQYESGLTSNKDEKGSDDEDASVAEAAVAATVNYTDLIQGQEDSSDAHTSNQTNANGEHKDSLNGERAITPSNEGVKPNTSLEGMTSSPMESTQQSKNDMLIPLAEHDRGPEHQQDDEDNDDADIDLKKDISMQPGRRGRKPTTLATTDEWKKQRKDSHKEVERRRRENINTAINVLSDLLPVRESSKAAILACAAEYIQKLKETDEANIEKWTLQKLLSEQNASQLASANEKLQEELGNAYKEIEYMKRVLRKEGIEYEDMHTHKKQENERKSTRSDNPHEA
Notes: whole 60-bp probe, lowest competitor level
CGTCCTAGCGATTGATCTGTGGGTGCCATGAGGAAG: 71.7 a.u.
TGGTTAACTAAACGTAATGTGACAGTATCATTGAAA: 106 a.u.
ATGTAGTAACTTTTTGATGTGACGGTCGTTAATACC: 88.2 a.u.
CGGGGTTAAGTTTGTGAAGTGGGTGGCTTGCAGCAG: 80.1 a.u.
CTTCTGTAAATTTGTCACGAGACTTGACGCGCCCCG: 938 a.u.
TGCGCAACAACTTTTCACGTGACTTTATGTCTAGAA: 7590 a.u.
CGGGGTTAAGTTTGGGGGGTGGGTGGCTTGCAGCAG: 140 a.u.
TGCGCAACAACTTTTCACGTGGTATTATGTCTAGAA: 1260 a.u.
TGCGCAACAACTTGAGTAGTGGGTGTATGTCTAGAA: 62 a.u.
AGTACAGTCTTGGACAATGTGACAGGGACCCTTGAA: 79.1 a.u.
TCCCGCTATTTCGACCACGTGGAATCATTTTCGGGT: 1830 a.u.
CAAATCGAAACCACCATCGTGTCCTTCCTTGGGAAC: 71 a.u.
CTTGGTCAATCAATCCACGTGAACCTCAACGCAGAT: 657 a.u.
CGCCATTACGACAATCACATGGTTGTTAAATCGCGG: 882 a.u.
CGCTGCCGTTCATGATACGTGTCCTCAGGACGTCTG: 44.9 a.u.
CTATCTTCAAAGGTTGTCGTGCCGATGTTGTAATGG: 73.9 a.u.
GATTAGTTTCAGGTACATGTGTCAAATGAGGATAAA: 128 a.u.
CTTTCCCGATCTTGGACGGTGGGTGTAGCACATTTG: 67.1 a.u.
CTAACGAAGGTTTGTGCAGTGGGTGACAAGCCAAGT: 71.4 a.u.
CAGCAAGACCGGAAACACGTTGTTGGGTAAATACTT: 156 a.u.
GGCAAGGGTCCGTTTCGCGTGACGAATCATAGCGGG: 129 a.u.

Block 5 — technique: DHFR PCA, deep sequencing; medium: yeast; with: (+)-ABA 58 µM; relative to: wild-type fitted maximum; reading: higher = stronger binding; measurement: relative binding score
Target: ABI1, truncated, D143A, DHFR fusion (Arabidopsis thaliana)
Notes: methotrexate growth selection, single substitutions
Parent: PYL1, truncated, DHFR fusion (Arabidopsis thaliana); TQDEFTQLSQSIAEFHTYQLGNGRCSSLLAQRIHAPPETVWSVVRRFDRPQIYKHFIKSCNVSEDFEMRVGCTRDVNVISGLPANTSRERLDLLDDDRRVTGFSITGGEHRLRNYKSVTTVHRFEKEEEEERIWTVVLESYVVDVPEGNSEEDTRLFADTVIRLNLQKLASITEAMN
S104R: 44%
D95G: 4.86%
R46P: -7.59%
S63A: 91.5%
R98T: 68.3%
F15P: -16.7%
E38S: 78%
R88N: 78.6%
V44W: -0.884%
P36M: 75.8%
M68I: 86%
A13I: 77.4%
L156K: 64.1%
F47M: -1.39%
I33G: -10.5%
R123K: 96.5%
D3Y: 82.1%
E174D: 50.4%
D48C: 8.83%
D97R: 85.4%
C72E: 76.6%
Q10C: 84.6%
V40F: -12.5%
E127C: 91.6%
E4Y: 86.4%

Some of these lines once more (block 4):
CTTCTGTAAATTTGTCACGAGACTTGACGCGCCCCG: 938 a.u.
TGCGCAACAACTTTTCACGTGACTTTATGTCTAGAA: 7590 a.u.
CGGGGTTAAGTTTGGGGGGTGGGTGGCTTGCAGCAG: 140 a.u.
TGCGCAACAACTTTTCACGTGGTATTATGTCTAGAA: 1260 a.u.
TGCGCAACAACTTGAGTAGTGGGTGTATGTCTAGAA: 62 a.u.
AGTACAGTCTTGGACAATGTGACAGGGACCCTTGAA: 79.1 a.u.
TCCCGCTATTTCGACCACGTGGAATCATTTTCGGGT: 1830 a.u.
CAAATCGAAACCACCATCGTGTCCTTCCTTGGGAAC: 71 a.u.
CTTGGTCAATCAATCCACGTGAACCTCAACGCAGAT: 657 a.u.
CGCCATTACGACAATCACATGGTTGTTAAATCGCGG: 882 a.u.
CGCTGCCGTTCATGATACGTGTCCTCAGGACGTCTG: 44.9 a.u.
CTATCTTCAAAGGTTGTCGTGCCGATGTTGTAATGG: 73.9 a.u.
GATTAGTTTCAGGTACATGTGTCAAATGAGGATAAA: 128 a.u.
